Measurements gathered from unrelated publications.
A part holds a random share of what one study measured. Positions count from the first letter of the parent shown.

Sample 1 — technique: protein-binding microarray; form: double-stranded DNA, one strand shown; sample: in vitro; concentration: 2540 nM top; setting: 60-bp whole probe; together with: salmon DNA 0.4 mg/ml; baseline: random background probes; reading: higher = stronger binding; shared flanks, not repeated: GCCTAGCAC … GTCTTGATTCGCTTGACGCTGCTG
Target: Interferon regulatory factor 3, full length, phosphomimetic (IRF3, Homo sapiens, UniProt Q14653, residues 1-427, S386D/S396D/S398D/S402D/T404D/S405D)
UniProt Q14653, sequence (whole entry, unmodified, looked up): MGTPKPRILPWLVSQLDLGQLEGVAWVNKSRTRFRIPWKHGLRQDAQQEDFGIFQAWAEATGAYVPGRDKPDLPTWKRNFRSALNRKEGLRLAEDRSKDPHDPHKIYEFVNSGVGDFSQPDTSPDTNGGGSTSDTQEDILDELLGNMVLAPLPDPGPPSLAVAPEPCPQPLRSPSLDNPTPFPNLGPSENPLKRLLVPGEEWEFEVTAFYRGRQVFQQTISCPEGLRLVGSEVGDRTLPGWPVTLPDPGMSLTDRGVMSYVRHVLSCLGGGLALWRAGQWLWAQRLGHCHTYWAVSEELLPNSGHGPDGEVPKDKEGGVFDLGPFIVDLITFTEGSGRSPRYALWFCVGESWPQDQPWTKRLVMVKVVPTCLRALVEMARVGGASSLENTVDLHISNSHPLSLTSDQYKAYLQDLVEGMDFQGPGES
| Oligonucleotide | fitted relative affinity [z-score] |
| --- | --- |
| TTAGGTCTCGGTCTCGATTAGTGCTAG | 1.03 |
| GACGTTTTCGGTATCGGGACGTGCTAG | 5.14 |
| TCAACTCTGTGCTTTCCTACTGTGCTA | 0.793 |
| AAACAAGTCAATGGCCTTTCGTGCTAG | -0.324 |
| TTAGATTTCCGTATCGATTAGTGCTAG | 3.57 |
| CACGATCTCAGTTTCGAGACGTGCTAG | 2.29 |
| GACGGTCTCCTTTTCCCGACGTGCTAG | 4.82 |
| GATAATTTATAAATAAAAAAGTGCTAG | 0.00741 |
| TCATCTTCAGGTTCTCCCACTGTGCTA | 1.13 |
| GACGGTATCGGGTATCGGGCCGTGCTA | 1.39 |
| GACGGTATCGGGAGTGGGGACGTGCTA | 0.869 |
| GACGATCCCAGACTGGAGACGTGCTAG | 0.192 |
| GACGGTCGCGGTCTCGGGACGTGCTAG | -0.138 |
| TCAAGACTCATAATGGCACTGTGCTAG | -0.441 |
| GACGGACAGGGGACTGGGGACGTGCTA | -0.883 |
| GACGATTTCGGGTTTCAAGACGTGCTA | 2.7 |

Sample 2 — technique: protein binding microarray; form: double-stranded DNA, one strand shown; sample: in vitro; concentration: not given; baseline: not given; reading: higher = stronger binding
Target: Histone acetyltransferase KAT6A, winged helix 2, GST fusion (KAT6A, Homo sapiens, UniProt Q92794, residues 85-181)
Setting: 8-mer, flanks averaged, mean of 2 arrays, mostly near background
Residues (chain): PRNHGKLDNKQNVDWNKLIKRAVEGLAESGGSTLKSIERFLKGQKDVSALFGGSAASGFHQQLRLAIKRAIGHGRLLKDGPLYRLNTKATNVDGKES
| Oligonucleotide | E-score |
| --- | --- |
| CGTGGCAG | 0.097 |
| ATGGCTCG | 0.0406 |
| ATATATAG | -0.07 |
| GGTTGCAA | 0.0374 |
| GCCTTCGA | 0.0436 |
| ACTGTCCA | -0.0438 |
| AAATGCCG | 0.107 |
| CCGATCGG | 0.226 |
| ACAGAGCT | 0.0374 |
| TGCGTACA | -0.0689 |
| GCGGAGTA | 0.033 |
| AGATTGAC | -0.0561 |
| AGAATAAC | -0.193 |
| GTTAGGGA | 0.0189 |
| ACCTAATA | -0.109 |
| GACGGGGC | 0.0885 |
| AGATTACG | -0.0131 |
| ACATTCCT | -0.165 |
| GGAGTTCA | 0.0168 |
| AGACCCGC | 0.0993 |
| ATAACCGA | -0.0485 |
| ATGGGTTC | -0.144 |
| CTAAGCAC | 0.194 |
| CAGACCCA | 0.00529 |
| CTTCTTAA | 0.0904 |

Sample 3 — target: CCNE2, cyclin fold, Cln2 fusion (human); technique: yeast growth competition, sequencing; sample: yeast; setting: strong parent motif; baseline: not given; reading: higher = stronger binding
Starting sequence: REPIN1 docking peptide (human); QSFRGWVALVLHL; partner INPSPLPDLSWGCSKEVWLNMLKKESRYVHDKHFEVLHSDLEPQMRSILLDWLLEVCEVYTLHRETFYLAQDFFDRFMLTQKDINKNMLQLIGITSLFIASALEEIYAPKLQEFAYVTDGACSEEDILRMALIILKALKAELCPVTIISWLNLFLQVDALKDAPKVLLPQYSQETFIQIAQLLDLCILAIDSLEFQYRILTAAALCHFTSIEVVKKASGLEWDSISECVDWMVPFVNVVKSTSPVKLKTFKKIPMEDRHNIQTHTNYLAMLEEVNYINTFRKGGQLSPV
| Substitution | normalised enrichment score |
| --- | --- |
| V10A | 0.569 |
| F3A | 0.893 |
| L13A | 1.19 |
| L9A | 0.532 |
| R4A | 0.142 |
| S2A | 0.889 |

Sample 4 — technique: DHFR PCA, deep sequencing; sample: yeast; together with: (+)-ABA 710 µM; baseline: wild-type fitted maximum; reading: higher = stronger binding
Target: ABI1, truncated, D143A, DHFR fusion (Arabidopsis thaliana)
Setting: methotrexate growth selection, single substitutions
Starting sequence: PYL1, truncated, DHFR fusion (Arabidopsis thaliana); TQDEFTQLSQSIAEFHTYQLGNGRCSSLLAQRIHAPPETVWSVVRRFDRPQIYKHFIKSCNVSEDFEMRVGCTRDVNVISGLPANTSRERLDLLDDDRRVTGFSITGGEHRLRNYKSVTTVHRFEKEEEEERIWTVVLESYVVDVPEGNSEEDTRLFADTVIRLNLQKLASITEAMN; partner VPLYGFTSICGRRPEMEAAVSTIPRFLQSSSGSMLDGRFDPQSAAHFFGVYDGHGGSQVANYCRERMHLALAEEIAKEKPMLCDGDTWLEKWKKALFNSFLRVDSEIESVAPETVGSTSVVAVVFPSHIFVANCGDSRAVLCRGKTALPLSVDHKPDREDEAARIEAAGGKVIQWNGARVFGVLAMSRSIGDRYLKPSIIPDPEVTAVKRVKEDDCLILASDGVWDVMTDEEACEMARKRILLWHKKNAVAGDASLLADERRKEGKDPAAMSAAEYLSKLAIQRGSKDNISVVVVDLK
| Substitution | relative binding score |
| --- | --- |
| D75V | 102% |
| N114W | 39.5% |
| H110A | 36% |
| R99C | 99.8% |
| V44G | 1.29% |
| S27N | 103% |
| Q7A | 105% |
| P50C | 84.5% |
| D95F | 88.1% |
| I79A | 105% |
| L8N | 71.7% |
| V143L | 86% |
| V121L | 102% |
| T17R | 101% |

Sample 5 — technique: RNA Bind-n-Seq; form: RNA; sample: in vitro; concentration: 200 nM; setting: whole 134-nt RNA, ends assumed; together with: 150 mM LiCl; baseline: input library; reading: higher = stronger binding; all molecules: 7-deaza-guanosine replaces G
Target: Ras GTPase-activating protein-binding protein 1, full length (G3BP1, Homo sapiens, UniProt Q13283)
UniProt Q13283, sequence (whole entry, looked up): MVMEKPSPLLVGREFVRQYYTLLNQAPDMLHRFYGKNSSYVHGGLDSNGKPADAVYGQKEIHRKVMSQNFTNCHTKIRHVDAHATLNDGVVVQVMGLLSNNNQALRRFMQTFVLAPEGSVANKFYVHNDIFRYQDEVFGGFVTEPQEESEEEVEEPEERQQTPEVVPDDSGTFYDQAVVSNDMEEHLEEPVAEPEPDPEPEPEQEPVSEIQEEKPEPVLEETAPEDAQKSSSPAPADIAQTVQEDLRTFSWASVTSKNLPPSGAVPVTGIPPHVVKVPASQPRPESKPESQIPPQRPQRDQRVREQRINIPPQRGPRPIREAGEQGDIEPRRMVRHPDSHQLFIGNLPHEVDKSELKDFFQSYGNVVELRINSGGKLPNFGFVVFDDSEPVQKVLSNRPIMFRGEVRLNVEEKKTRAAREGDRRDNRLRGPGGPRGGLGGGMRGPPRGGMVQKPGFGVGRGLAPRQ
Shared flanks, not repeated: GGGAGUUCUACAGUCCGACGAUC … UGGAAUUCUCGGGUGUCAAGG
| Oligonucleotide | log2 enrichment |
| --- | --- |
| CUCAAGUCCUGUGCUACACAUCGUAUGUACCGAAUCGGAGGAAAAAAAGGUGGAAAGUAUUAUGUUACGCCGUUCGGAUCUGCACUUCCA | -1.49 |
| CAAGUCCUGUGCUACACAUCGUAUGUACCGAAUCGGAAAAGGAAAAGGGAAAAGGAAAGUAUUAUGUUACGCCGUUCGGAUCUGCACUUC | -0.557 |
| UCCUGUGCUACACAUCGUAUGUACCGAAUCGGGGUGGGGUUUUUUUGGGGUUUUUGGGGAAAGUAUUAUGUUACGCCGUUCGGAUCUGCA | 0.498 |
| CAAGUCCUGUGCUACACAUCGUAUGUACCGAAUCGGGGAAAGGAAAGGGGAAAGGAAAGUAUUAUGUUACGCCGUUCGGAUCUGCACUUC | -0.285 |
| CAAGUCCUGUGCUACACAUCGUAUGUACCGAAUCGGUUUUUGGAAAAAGGAAAGGAAAGUAUUAUGUUACGCCGUUCGGAUCUGCACUUC | -1.12 |
| GUCCUGUGCUACACAUCGUAUGUACCGAAUCAAAUUUAAAUUUUUAAAUUUUUUUAAAAAAGUAUUAUGUUACGCCGUUCGGAUCUGCAC | -2.93 |
| CUGUGCUACACAUCGUAUGUACCGAAUCGGGGAAAAAAAGGGGAAAGGGGAAAAAAAGGGGAAAGUAUUAUGUUACGCCGUUCGGAUCUG | 0.602 |
| AGUCCUGUGCUACACAUCGUAUGUACCGAAUCGGGGUGGGGUUUUUGGGGAAAGGGGAAAGUAUUAUGUUACGCCGUUCGGAUCUGCACU | 0.424 |
